Measurements gathered from unrelated publications.
Lines come from different studies, so protocols differ. ± gives the spread as reported.

Compound | assay | system | setting | terminal half-life [h]
Cl.O=C(NC1CCOCC1)c1csc([C@@H]2C[C@H]2NCC2CC2)c1 |  | human, fed, plasma | oral, 30 mg single dose | 4.49
CCN1CCN(Cc2ccc(Nc3ncc(F)c(-c4cc(F)c5nc6n(c5c4)[C@H](C)CCC6)n3)nc2)CC1 |  | human, phase Ia | 50 to 500 mg, single dose | 35.9 to 51.1
Cc1nc2ccc(F)cc2n1-c1nc(N)c(F)c(Nc2ccc(C(F)(F)F)cc2)n1 |  | human patients, plasma | 200 to 400 mg, monophasic decline | ~9.5
Cc1cc(-c2nccc3c2ccn3CC(=O)Nc2ccc(-c3cnccn3)cn2)ccn1 |  | human, plasma | oral, 20 mg once daily, day 16, geometric mean | 17.2
C[C@@]1(c2cc(NC(=O)c3ccc(C#N)cn3)ccc2F)C=CSC(N)=N1 |  | elderly humans, both sexes, plasma | oral, 10 mg single dose, mean | 14.4
C[C@@H](c1ccc2nccn2c1)n1nnc2ncc(-c3cnn(C)c3)nc21 | noncompartmental analysis | human, plasma | oral, dose not given, cycle 2 day 1, multiple dosing | 3.32
CC[C@H](C)[C@H](NC(=O)[C@H](Cc1ccccc1)NC(=O)[C@H](CCC(=O)O)NC(=O)[C@H](CCCCNC(=O)COCCOCCNC(=O)COCCOCCNC(=O)CC[C@H](NC(=O)CCCCCCCCCCCCCCCCC(=O)O)C(=O)O)NC(=O)[C@H](C)NC(=O)[C@H](C)NC(=O)[C@H](CCC(N)=O)NC(=O)CNC(=O)[C@H](CCC(=O)O)NC(=O)[C@H](CC(C)C)NC(=O)[C@H](Cc1ccc(O)cc1)NC(=O)[C@H](CO)NC(=O)[C@H](CO)NC(=O)[C@@H](NC(=O)[C@H](CC(=O)O)NC(=O)[C@H](CO)NC(=O)[C@@H](NC(=O)[C@H](Cc1ccccc1)NC(=O)[C@@H](NC(=O)CNC(=O)[C@H](CCC(=O)O)NC(=O)C(C)(C)NC(=O)[C@@H](N)Cc1cnc[nH]1)[C@@H](C)O)[C@@H](C)O)C(C)C)C(=O)N[C@@H](C)C(=O)N[C@@H](Cc1c[nH]c2ccccc12)C(=O)N[C@@H](CC(C)C)C(=O)N[C@H](C(=O)N[C@@H](CCCNC(=N)N)C(=O)NCC(=O)N[C@@H](CCCNC(=N)N)C(=O)NCC(=O)O)C(C)C |  | human, plasma | oral, 14 mg once daily, harmonic mean | 153
Cc1[nH]c(/C=C2\C(=O)Nc3ccc(F)cc32)c(C)c1C(=O)N[C@H]1CCN(C(=O)N(C)C)C1 |  | human patients, plasma | oral, 150 mg single dose, added: everolimus 5 mg | 4.8 ± 0.6
Cn1cc(-c2ccc(S(=O)(=O)[C@@H]3C[C@@H](C(=O)NC4(C#N)CC4)N(C(=O)C4(C(F)(F)F)CC4)C3)c(C(F)(F)F)c2)cn1 | noncompartmental | human, both sexes, plasma | oral, 100 mg once daily, day 1, with food, single dose | 8.44
O=C(O)CCC(=O)O.[2H]C([2H])([2H])Oc1cc(C)c2[nH]ccc2c1CN1CC[C@@H](C2CC2)C[C@H]1c1ccc(C(=O)O)cc1 |  | healthy humans, fed | oral, 200 mg, single dose, high-fat meal | 29.8
CC(C)c1nc(N(C)S(C)(=O)=O)nc(-c2ccc(F)cc2)c1/C=C/[C@@H](O)C[C@@H](O)CC(=O)O |  | human, plasma | oral, dose not given, single dose alone, geometric mean | 13.9
COc1nnc2ccc(N3CCC(c4ccc(OCCN5CCN(C)C(=O)[C@H]5C)cc4)CC3)nn12 |  | human, plasma | oral, 10 mg once daily, multiple dose, monotherapy | 5.19
COC(=O)c1ccc2c(c1)NC(=O)/C2=C(\Nc1ccc(N(C)C(=O)CN2CCN(C)CC2)cc1)c1ccccc1 |  | healthy human | oral, 150 mg single, alone | 13.1
CN(CC#N)C(=O)C[C@H](Nc1nc2ccccc2[nH]1)c1cccc(C(F)(F)F)c1 |  | human | intravenous infusion, 2 mg/kg, 1 mg/mL formulation | 4.14 ± 0.45
Cc1cc(Nc2ccc(S(F)(F)(F)(F)F)cc2)n2nc(C(C)(F)F)nc2n1 | LC-MS/MS | human vivax malaria patients, plasma | oral, 800 mg, mean | 110
CN(C)CCCNC(=O)/C(=C/CCCCC(=O)NO)COc1cccc2ccccc12 |  | human | intravenous, 312.5 mg/m^2, single dose, day one | 6.58
C#C[C@]1(O)CC[C@H]2[C@@H]3CCc4cc(O)ccc4[C@H]3CC[C@@]21C |  | human female | oral, single dose oral contraceptive, added: ritlecitinib 50 mg once daily multiple doses | 19.5 ± 4.9
CN1C(=O)[C@@H](NC(=O)c2nnc(Cc3ccccc3)[nH]2)COc2cccnc21 |  | human, plasma | oral, 50 mg once daily, day 14, geometric mean | 6.3
Nc1nc2cc(-c3ccc4ncc(C(=O)N5CCOCC5)n4c3)ccc2o1 |  | human, plasma | oral | 6 to 14
Cc1cc(-c2nnc(N)nc2-c2ccc(F)cc2)cc(Cl)n1 |  | human patients, plasma | oral, 150 mg capsule, single dose, arithmetic mean | 8.05
